Published values pooled from the literature.
Parts stem from different laboratories: compare values within a part only. “And” joins repeats or separate records; there may be more than shown.
UniProt Q00537, sequence (whole entry, looked up): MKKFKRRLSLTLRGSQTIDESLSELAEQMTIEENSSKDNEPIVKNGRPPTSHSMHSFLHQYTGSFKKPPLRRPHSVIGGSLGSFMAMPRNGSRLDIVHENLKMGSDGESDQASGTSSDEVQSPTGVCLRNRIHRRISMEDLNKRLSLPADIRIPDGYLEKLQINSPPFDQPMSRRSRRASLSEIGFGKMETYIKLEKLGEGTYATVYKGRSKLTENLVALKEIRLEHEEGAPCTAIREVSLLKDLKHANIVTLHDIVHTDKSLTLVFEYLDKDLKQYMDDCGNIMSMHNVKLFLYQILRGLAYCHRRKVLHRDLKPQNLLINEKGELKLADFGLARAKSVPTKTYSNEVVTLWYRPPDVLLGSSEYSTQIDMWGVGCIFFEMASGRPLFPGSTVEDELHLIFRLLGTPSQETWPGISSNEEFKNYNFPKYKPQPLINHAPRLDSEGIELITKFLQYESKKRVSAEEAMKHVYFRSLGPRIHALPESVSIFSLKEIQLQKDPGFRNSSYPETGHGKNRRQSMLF
UniProt Q9P1W9, sequence (whole entry, looked up): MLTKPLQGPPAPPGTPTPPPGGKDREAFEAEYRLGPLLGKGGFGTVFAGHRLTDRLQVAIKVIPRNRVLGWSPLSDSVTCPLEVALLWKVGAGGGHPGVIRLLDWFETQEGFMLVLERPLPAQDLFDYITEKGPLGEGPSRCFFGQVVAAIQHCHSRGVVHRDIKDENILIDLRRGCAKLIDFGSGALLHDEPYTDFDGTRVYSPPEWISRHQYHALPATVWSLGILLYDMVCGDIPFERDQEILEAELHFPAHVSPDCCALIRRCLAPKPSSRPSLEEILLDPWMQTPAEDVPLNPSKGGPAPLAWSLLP
UniProt O60285, sequence (whole entry, looked up): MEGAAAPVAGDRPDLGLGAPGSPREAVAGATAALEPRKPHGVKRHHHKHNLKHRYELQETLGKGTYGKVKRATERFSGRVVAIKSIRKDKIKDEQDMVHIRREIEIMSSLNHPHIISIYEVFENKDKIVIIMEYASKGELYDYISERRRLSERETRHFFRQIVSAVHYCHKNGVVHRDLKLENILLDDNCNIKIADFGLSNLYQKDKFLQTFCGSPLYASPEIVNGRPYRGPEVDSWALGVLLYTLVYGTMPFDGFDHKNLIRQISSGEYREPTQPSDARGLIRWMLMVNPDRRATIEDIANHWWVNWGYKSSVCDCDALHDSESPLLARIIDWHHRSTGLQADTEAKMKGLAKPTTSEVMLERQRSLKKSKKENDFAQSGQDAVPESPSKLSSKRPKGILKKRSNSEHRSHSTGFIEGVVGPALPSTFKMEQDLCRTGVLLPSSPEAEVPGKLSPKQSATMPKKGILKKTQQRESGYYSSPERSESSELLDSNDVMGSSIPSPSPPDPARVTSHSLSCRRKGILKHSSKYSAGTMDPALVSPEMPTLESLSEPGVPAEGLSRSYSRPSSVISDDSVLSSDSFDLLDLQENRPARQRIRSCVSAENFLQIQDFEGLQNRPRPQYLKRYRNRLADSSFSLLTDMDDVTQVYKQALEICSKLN
UniProt Q9H2G2, sequence (whole entry, looked up): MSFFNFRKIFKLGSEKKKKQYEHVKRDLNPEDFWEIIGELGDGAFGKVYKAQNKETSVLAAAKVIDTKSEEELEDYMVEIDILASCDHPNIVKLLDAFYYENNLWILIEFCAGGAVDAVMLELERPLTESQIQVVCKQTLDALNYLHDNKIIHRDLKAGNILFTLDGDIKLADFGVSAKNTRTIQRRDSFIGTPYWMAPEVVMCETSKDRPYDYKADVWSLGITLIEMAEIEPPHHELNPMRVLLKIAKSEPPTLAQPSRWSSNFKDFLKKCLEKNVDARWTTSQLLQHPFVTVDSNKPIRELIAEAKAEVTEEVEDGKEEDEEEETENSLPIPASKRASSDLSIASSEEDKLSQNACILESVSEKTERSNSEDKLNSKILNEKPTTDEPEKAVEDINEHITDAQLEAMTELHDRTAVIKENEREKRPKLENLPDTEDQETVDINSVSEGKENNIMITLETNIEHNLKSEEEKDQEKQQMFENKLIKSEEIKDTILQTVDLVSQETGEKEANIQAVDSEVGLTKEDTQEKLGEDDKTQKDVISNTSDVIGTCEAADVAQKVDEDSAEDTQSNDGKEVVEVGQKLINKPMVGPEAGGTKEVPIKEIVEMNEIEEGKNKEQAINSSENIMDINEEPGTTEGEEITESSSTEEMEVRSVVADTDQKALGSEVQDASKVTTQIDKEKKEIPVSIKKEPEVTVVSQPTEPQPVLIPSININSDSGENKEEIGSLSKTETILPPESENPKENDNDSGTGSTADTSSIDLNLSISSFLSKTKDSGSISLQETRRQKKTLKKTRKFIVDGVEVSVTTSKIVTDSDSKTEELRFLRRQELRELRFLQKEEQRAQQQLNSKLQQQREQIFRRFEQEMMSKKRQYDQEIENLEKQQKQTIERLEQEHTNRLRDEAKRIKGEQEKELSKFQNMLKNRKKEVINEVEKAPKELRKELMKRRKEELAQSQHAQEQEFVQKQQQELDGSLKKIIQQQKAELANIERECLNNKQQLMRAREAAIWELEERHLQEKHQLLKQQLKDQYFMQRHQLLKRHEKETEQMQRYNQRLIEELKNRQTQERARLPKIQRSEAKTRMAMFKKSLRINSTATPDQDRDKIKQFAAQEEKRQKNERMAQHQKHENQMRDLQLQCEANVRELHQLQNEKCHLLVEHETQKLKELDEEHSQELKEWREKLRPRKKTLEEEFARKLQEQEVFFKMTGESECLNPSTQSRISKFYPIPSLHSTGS
UniProt O43293, sequence (whole entry, looked up): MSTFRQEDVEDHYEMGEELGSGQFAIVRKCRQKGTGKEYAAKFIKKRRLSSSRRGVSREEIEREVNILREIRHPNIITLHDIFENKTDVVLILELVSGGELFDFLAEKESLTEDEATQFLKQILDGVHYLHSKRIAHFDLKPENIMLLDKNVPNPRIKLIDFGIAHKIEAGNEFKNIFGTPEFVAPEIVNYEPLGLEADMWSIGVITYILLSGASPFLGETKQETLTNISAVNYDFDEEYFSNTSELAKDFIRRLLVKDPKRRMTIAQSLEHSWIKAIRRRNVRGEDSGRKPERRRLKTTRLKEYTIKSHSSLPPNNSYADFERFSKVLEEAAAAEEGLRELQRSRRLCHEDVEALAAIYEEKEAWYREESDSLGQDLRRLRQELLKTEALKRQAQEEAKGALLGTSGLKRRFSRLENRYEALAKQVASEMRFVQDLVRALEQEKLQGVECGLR
UniProt Q92630, sequence (whole entry, looked up): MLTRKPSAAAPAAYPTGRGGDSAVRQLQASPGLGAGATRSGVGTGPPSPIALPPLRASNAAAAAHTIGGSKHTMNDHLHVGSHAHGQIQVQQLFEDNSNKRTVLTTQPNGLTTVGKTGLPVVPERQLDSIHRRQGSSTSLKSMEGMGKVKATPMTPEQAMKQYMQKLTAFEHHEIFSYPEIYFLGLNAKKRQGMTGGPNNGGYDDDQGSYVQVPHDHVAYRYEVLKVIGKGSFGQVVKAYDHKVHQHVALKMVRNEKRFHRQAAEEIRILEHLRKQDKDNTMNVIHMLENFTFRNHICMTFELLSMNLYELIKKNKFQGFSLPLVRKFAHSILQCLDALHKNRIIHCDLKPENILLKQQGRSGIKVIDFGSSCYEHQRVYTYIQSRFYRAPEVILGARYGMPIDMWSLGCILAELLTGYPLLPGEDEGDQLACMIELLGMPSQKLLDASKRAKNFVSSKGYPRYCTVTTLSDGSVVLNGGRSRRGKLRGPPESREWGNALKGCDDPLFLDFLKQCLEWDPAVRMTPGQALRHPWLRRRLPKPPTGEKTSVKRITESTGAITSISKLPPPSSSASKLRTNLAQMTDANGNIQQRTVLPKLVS
UniProt Q14289, sequence (whole entry, looked up): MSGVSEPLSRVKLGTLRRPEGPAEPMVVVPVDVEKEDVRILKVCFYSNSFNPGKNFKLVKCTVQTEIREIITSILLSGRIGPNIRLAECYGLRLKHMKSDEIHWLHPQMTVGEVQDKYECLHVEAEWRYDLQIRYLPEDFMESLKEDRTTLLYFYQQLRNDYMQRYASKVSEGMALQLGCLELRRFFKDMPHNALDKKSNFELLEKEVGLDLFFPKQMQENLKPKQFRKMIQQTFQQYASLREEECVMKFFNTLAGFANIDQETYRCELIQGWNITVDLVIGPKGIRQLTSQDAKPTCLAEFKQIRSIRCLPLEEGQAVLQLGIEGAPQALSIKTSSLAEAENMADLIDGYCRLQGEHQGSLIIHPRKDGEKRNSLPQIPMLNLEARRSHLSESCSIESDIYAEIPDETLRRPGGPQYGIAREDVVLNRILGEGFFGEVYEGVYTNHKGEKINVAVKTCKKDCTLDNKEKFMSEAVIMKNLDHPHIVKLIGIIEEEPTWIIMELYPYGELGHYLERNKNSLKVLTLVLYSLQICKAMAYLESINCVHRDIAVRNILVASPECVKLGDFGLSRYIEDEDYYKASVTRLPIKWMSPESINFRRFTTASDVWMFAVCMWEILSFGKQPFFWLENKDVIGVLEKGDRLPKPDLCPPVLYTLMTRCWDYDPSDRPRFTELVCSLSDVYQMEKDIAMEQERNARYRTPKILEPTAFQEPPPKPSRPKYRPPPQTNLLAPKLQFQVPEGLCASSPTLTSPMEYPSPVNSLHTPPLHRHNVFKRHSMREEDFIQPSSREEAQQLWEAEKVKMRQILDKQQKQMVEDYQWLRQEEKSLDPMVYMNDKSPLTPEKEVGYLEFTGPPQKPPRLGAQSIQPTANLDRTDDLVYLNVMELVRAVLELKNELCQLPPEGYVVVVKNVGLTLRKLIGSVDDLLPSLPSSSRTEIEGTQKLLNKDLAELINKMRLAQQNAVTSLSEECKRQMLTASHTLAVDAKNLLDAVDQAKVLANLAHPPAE

Study 1
SMILES: O=C(O)[C@@H]1[C@@H](Cn2nnc3ccccc3c2=O)CC[C@H]1C(=O)c1ccc(OCCC2CCOCC2)cc1
Technique: competition with immobilised ligand
Tested at: 1 µM
Quantity: remaining binding
DYRK2 (Homo sapiens, UniProt Q92630); cell-free assay: 90%
SLK (Homo sapiens, UniProt Q9H2G2); cell-free assay: 88%
MAP4K2 (Homo sapiens, UniProt Q12851); cell-free assay: 97%
CDK17 (Homo sapiens, UniProt Q00537); cell-free assay: 88%
Ribosomal protein S6 kinase alpha-1, C-terminal kinase domain (RPS6KA1, Homo sapiens, UniProt Q15418); cell-free assay: 92%
NUAK2 (Homo sapiens, UniProt Q9H093); cell-free assay: 100%
BMPR2 (Homo sapiens, UniProt Q13873); cell-free assay: 98%
PIM2 (Homo sapiens, UniProt Q9P1W9); cell-free assay: 94%
PTK2B (Homo sapiens, UniProt Q14289); cell-free assay: 100%
ACVR2B (Homo sapiens, UniProt Q13705); binding: 100%
NUAK1 (Homo sapiens, UniProt O60285); cell-free assay: 84%
PIK3CA (Homo sapiens, UniProt P42336, I800L); cell-free assay: 34%
DAPK3 (Homo sapiens, UniProt O43293); cell-free assay: 100%

Study 2
Cell line: A-375
Tested at: 100 µM
Time: 18 h
Quantity: viability
Cc1ccsc1/C=C/C1=NCCCN1C: 109%
Cc1cc(C(C#N)c2ccc(Cl)cc2)c(Cl)cc1NC(=O)c1cc(I)cc(I)c1O (stereo not drawn): 12.7%
Nc1nc(O)c2ncn(COC(CO)CO)c2n1: 98.1%
COc1ccc(-c2cc(=O)c3c(O)c(OC)c(O)cc3o2)cc1OC: 94.6%
Cc1ncc(CSSCc2cnc(C)c(O)c2CO)c(CO)c1O: 89.8%

Study 3
Species: mouse
Matrix: microsomes or S9
Tested at: 2 µM
Time: 0.5 h
Quantity: remaining compound
COc1cc(Cl)c(NC(=O)c2cc(S(=O)(=O)N3CCOCC3)cn2C)c(OC)c1: 54.9%
Cn1cc(-c2noc(C(O)C3CCCCCCC3)n2)nn1 (stereo not drawn): 40.5%
O=C(Nc1ccccc1)C1CCCN1C1=NS(=O)(=O)c2ccccc21 (stereo not drawn): 132%
Cn1ncc2c1NC(=O)CC2c1cc(Cl)cc2c1OCOC2 (stereo not drawn): 40.9%
CCOc1cc(=O)n2c(c1C(=O)NCc1ccccc1Cl)CCCCC2: 0.5%

Study 4
SMILES: CC(C)(C(=O)O)[C@H](NC(=O)Cc1cccc(I)c1)c1ccc2oc(=O)[nH]c2c1
Technique: Incucyte 3D growth
Tested at: 30 µM
Direction: higher = more growth
Quantity: spheroid area
NCI-H358; 24 h: 3.17e+06 a.u. and 3.72e+06 a.u. and 2.83e+06 a.u. and 4.31e+06 a.u. and 3.34e+06 a.u. and 3.43e+06 a.u.
MEL-JUSO; 354.52 h: 4.04e+07 a.u. and 4.18e+07 a.u. and 5.77e+07 a.u. and 4.31e+07 a.u. and 5.07e+07 a.u. and 2.94e+07 a.u.
IPC-298; 0 h: 1.31e+07 a.u. and 1.35e+07 a.u. and 1.48e+07 a.u. and 1.54e+07 a.u. and 1.43e+07 a.u. and 1.63e+07 a.u.
MEL-JUSO; 522.52 h: 2.72e+07 a.u. and 2.69e+07 a.u. and 2.09e+07 a.u. and 5.89e+07 a.u. and 2.94e+07 a.u. and 7.87e+07 a.u.
A375; 90 h: 2.51e+07 a.u. and 5.58e+07 a.u. and 7.2e+07 a.u. and 5.17e+07 a.u. and 7.07e+07 a.u. and 5.44e+07 a.u.
PC-9; 102 h: 7.44e+08 a.u. and 7.22e+08 a.u. and 7.49e+08 a.u. and 7.61e+08 a.u. and 7.56e+08 a.u. and 7.55e+08 a.u.
MEL-JUSO; 312.52 h: 4.26e+07 a.u. and 2.39e+07 a.u. and 2.63e+07 a.u. and 2.67e+07 a.u. and 2.99e+07 a.u. and 2.79e+07 a.u.

A few entries again (study 4):
MEL-JUSO; 354.52 h: 4.04e+07 a.u. and 4.18e+07 a.u. and 5.77e+07 a.u. and 4.31e+07 a.u. and 5.07e+07 a.u. and 2.94e+07 a.u.
IPC-298; 0 h: 1.31e+07 a.u. and 1.35e+07 a.u. and 1.48e+07 a.u. and 1.54e+07 a.u. and 1.43e+07 a.u. and 1.63e+07 a.u.
MEL-JUSO; 522.52 h: 2.72e+07 a.u. and 2.69e+07 a.u. and 2.09e+07 a.u. and 5.89e+07 a.u. and 2.94e+07 a.u. and 7.87e+07 a.u.
A375; 90 h: 2.51e+07 a.u. and 5.58e+07 a.u. and 7.2e+07 a.u. and 5.17e+07 a.u. and 7.07e+07 a.u. and 5.44e+07 a.u.
